Measured values pooled from the literature.
Each line is one published result; not all experiments were run side by side.
Target: Inhibitor of nuclear factor kappa-B kinase subunit alpha (CHUK, Homo sapiens, UniProt O15111)

Compound	test	test system	conditions	scale	quantity	value
CC(=O)N1c2ccc(-c3ccc(CNC(=O)c4cn5cc(-c6cnc(N)nc6)nc(N6CCOCC6)c5n4)cc3)cc2CC[C@@H]1C	KINOMEscan	–	10 µM	–	remaining binding	52%
COc1c(Cl)cccc1Nc1c(-c2ccncc2C#C[C@@]2(C)CCCN2C(=O)/C=C/CN(C)C)[nH]c2c1C(=O)NCC2	cell-free assay, competition with immobilised ligand	–	3 µM	–	remaining binding	75%
CS(=O)(=O)Nc1cccc(-c2csc3cnc(Nc4ccc(N5CCN(CCCCCOc6cccc7c6C(=O)N(C6CCC(=O)NC6=O)C7=O)CC5)cc4)nc23)c1 (centres unmarked)	probe labelling, inhibitor, KiNativ chemoproteomics	MOLT-4	1 µM	–	inhibition	-23.7%
CCn1cc(C(=O)O)c(=O)c2c(N)c(F)c(NC3CCCCC3)cc21	kinase activity	–	0.1 µM, together with: ATP at Km	–	inhibition	-2.2%
CCN1CCN(Cc2ccc(C(=O)Nc3ccc(C)c(NCc4cnc5[nH]ccc5c4OC)c3)cc2C(F)(F)F)CC1	binding, competition with immobilised ligand	–	1 µM	–	remaining binding	0.6%
Cc1cccc(O[C@H]2CCC[C@@H](C(C)CNCc3ccncc3)C2)c1 (relative stereo)	enzyme activity, inhibitor	–	1 µM	–	inhibition	34%
O=C(Cc1ccc(OCc2ccccc2)cc1)NC1(C(=O)O)CCN(C(=O)c2ccc(-c3cccc(Cl)c3)cc2)CC1	enzyme activity, inhibitor	–	10 µM	–	activity vs control	118%
CN1CCN(Cc2ccc(NC(=O)c3cccc(C#Cc4cnc(N)c5ncccc45)c3)cc2C(F)(F)F)CC1	cell-free assay, competition with immobilised ligand	–	0.5 µM	–	remaining binding	0%
C=CC(=O)Nc1cccc(-c2cnc3[nH]cc(C(=O)NC(C)(C)C)c3n2)c1	enzyme activity, inhibitor	–	0.1 µM	–	inhibition	1%
COc1ccc(NC(=O)Nc2ccc3c(c2)C(=O)N(C(C)CO)CC(C)C(CN(C)Cc2ccc4c(c2)OCO4)O3)cc1 (centres unmarked)	kinase activity, KinaseProfiler	–	0.03 µM, species human	baseline: control	remaining activity	101%
NC(=O)C[C@H]1CCc2sc3ncnc(O[C@H]4CC[C@H](N5CCOCC5)CC4)c3c21	enzyme activity, inhibitor	–	10 µM	–	inhibition	3%
COc1ccc(C(=O)/C=C/c2ccccc2-c2c[nH]c3ccc(C#N)cc23)c(O)c1	enzyme activity, inhibitor	–	20 µM	–	inhibition	-4%
COc1cc(Nc2nccc(-c3cnn4nc(OC)ccc34)n2)cc(C(F)(F)F)c1	binding, competition with immobilised ligand	–	1 µM	–	remaining binding	100%
CNC1C[S+]2CC[S+]3CC[S+](C1)[Ru-4]321([N]=C=S)[n]2c3ccc(OC)cc3c3c4c(c5cc(F)c[n+]1c5c32)C(=O)NC4=O (centres unmarked)	KinomeScan	–	0.1 µM	baseline: untreated	remaining binding	99%

A few entries again:
Compound	test	test system	conditions	scale	quantity	value
CCn1cc(C(=O)O)c(=O)c2c(N)c(F)c(NC3CCCCC3)cc21	kinase activity	–	0.1 µM, together with: ATP at Km	–	inhibition	-2.2%
CCN1CCN(Cc2ccc(C(=O)Nc3ccc(C)c(NCc4cnc5[nH]ccc5c4OC)c3)cc2C(F)(F)F)CC1	binding, competition with immobilised ligand	–	1 µM	–	remaining binding	0.6%
